Assay results from different studies.
Lines come from different studies, so protocols differ. Numbers after ± are the reported error.
Organism: Salmonella typhimurium

| Structure (SMILES) | test | test system | setting | scale | measurement | result |
| --- | --- | --- | --- | --- | --- | --- |
| O=[N+]([O-])c1ccc(NC2CCNCC2)c(C(F)(F)F)c1 | SOS/umu test | TA1535/pSK1002 | 0.001 mg/mL, 4 h, without S9 activation | – | survival | 128% |
| Cc1cc(C(=O)NC(C)(C)COc2cccc3c2C(N)=NS(=O)(=O)N3)cc(C)n1 | Ames test, initial | TA1535 | 15.0 µg/plate, with: rat liver S9 | reference: solvent control | revertant ratio | 1 |
| COc1cccc(-c2n[nH]c(SCc3ccccn3)n2)c1OC | Ames test, preincubation | TA1537 | 2.0 mg/plate, without S9 | – | revertant colonies per plate | 1 |
| O=[N+]([O-])c1ccc(N2CCN(CCC(O)c3ccc(F)cc3)CC2)c(C(F)(F)F)c1 (stereo not drawn) | SOS/umu test | TA1535/pSK1002 | 0.25 mg/mL, 4 h, with S9, lower range | – | survival | 81.7% |
| CC(C)N(N=O)C(C)C | mutagenicity, Ames plate incorporation | TA1535 | 1500 µg/plate, without S9, methanol | – | revertant colonies per plate | 26 ± 7 |
| OC(CCN1CC=C(c2ccc(F)cc2)CC1)c1ccc(F)c2ccccc12 (stereo not drawn) | genotoxicity, SOS/umu test | TA1535/pSK1002 | 0.125 mg/mL, 4 h, without S9, lower range | – | induction factor | 0.3 |
| COCCN(CCOC)N=O | mutagenicity, Ames plate incorporation | TA98 | 50 µg/plate, 3 d, without S9, methanol | – | revertant colonies per plate | 28 ± 6 |
| N#C[C@@]1(n2ccc(N)nc2=O)O[C@H](CO)[C@@H](O)[C@H]1O | – | TA1535 | 2.5 µM, without S9 | – | viability | 106% |
| CNC(=O)c1c(N(C)N=O)ncn1C | mutagenicity, Ames plate incorporation | TA1537 | 150 µg/plate, without S9, methanol | – | revertant colonies per plate | 10.7 ± 5 |
| Fc1ccc(C2=CCNCC2)cc1 | genotoxicity, SOS/umu test | TA1535/pSK1002 | 0.25 mg/mL, 4 h, without S9, full range | – | induction factor | 0.9 |
| CN(N=O)c1ccc(F)cc1 | mutagenicity, Ames plate incorporation | TA1537 | 2500 µg/plate, 3 d, without S9, methanol | – | revertant colonies per plate | 7 ± 3 |
| CC(=O)N1CCC(C(=O)N2CCN3C(=O)c4cc(-c5ccccc5)ccc4NC(=O)C3C2)CC1 (stereo not drawn) | – | TA1537 | 5000 µg/plate, with: rat liver S9 | – | revertants per plate | 16 |
